Assay results from different studies.
Protocols differ between the studies behind these lines. Numbers after ± are the reported error. Non-standard residues stand in square brackets, D forms with d. Square brackets hold non-standard residues; d marks the D form. Ends that are not written are not given here. No end group written: not given here.
B1: prf1 aRF1 (Aeropyrum pernix, UniProt Q9YAF1); chain MSQGRLEERLTISKRELARLLKELKKWSAPATVLLSLYIPPGRPLSDVMTLLRQEYSITDNIKLKRTRQAVKRALSAAMDRLQMLTSTPPNGLVLFCGEDMSTGKFECFMFSPPEPIRVFYYRTDKRFITDFLEDMVEDNNAIGIIIVERDQATIGLLKGARLEVLKELEGFVPGKHKMGGQSQRRYERIIEQMVDEFFKKVGEEASNLLVPLAEKGVLKGVIVAGPGLAKQEFVEGNYLDYRLKKILAPELVDVAYQGLQGLKEAVMKAEKVVEAQMYRDAVNAMEEFKLHLAKGTGMIVYGEKDVEAALEMGAVKTLLIHESREDLEEWVEKAKSSGAQVIVVPESLAEAEWFLKTFGGLAGILRFRISTV
B2: nusG 42-233 (Thermotoga maritima, UniProt P29397); sequence looked up; chain EEVVLDATSPSERLILSPKAKLHVNNGKDVNKGDLIAEEPPIYARRSGVIVDVKNVRKIVVETIDRKYTKTYYIPESAGIEPGLRVGTKVKQGLPLSKNEEYICELDGKIVEIERMKKVVVQTPDGEQDVYYIPLDVFDRDRIKKGKEVKQGEMLAEARKFFAKVSGRVEVVDYSTRKEIRIYKTKRRKLFP
B3: UGT1A9 (Homo sapiens, UniProt O60656); chain GKLLVVPMDGSHWFTMRSVVEKLILRGHEVVVVMPEVSWQLGRSLNCTVKTYSTSYTLEDLDREFKAFAHAQWKAQVRSIYSLLMGSYNDIFDLFFSNCRSLFKDKKLVEYLKESSFDAVFLDPFDNCGLIVAKYFSLPSVVFARGILCHYLEEGAQCPAPLSYVPRILLGFSDAMTFKERVRNHIMHLEEHLLCHRFFKNALEIASEILQTPVTEYDLYSHTSIWLLRTDFVLDYPKPVMPNMIFIGGINCHQGKPLPMEFEAYINASGEHGIVVFSLGSMVSEIPEKKAMAIADALGKIPQTVLWRYTGTRPSNLANNTILVKWLPQNDLLGHPMTRAFITHAGSHGVYESICNGVPMVMMPLFGDQMDNAKRMETKGAGVTLNVLEMTSEDLENALKAVINDKSYKENIMRLSSLHKDRPVEPLDLAVFWVEFVMRHKGAPHLRPAAHDLTWYQYHSLDVIGFLLAVVLTVAFITFKCCAYGYRKCLGKKGRVKKAHKSKTH
B4: TIF4631 572-853 K590R (Saccharomyces cerevisiae, UniProt P39935); sequence looked up; chain LVPSANRWVPKFKSKKTERKLAPDGKTELLDKDEVERKMKSLLNKLTLEMFDAISSEILAIANISVWETNGETLKAVIEQIFLKACDEPHWSSMYAQLCGKVVKELNPDITDETNEGKTGPKLVLHYLVARCHAEFDKGWTDKLPTNEDGTPLEPEMMSEEYYAAASAKRRGLGLVRFIGFLYRLNLLTGKMMFECFRRLMKDLTDSPSEETLESVVELLNTVGEQFETDSFRTGQATLEGSQLLDSLFGILDNIIQTAKISSRIKFKLIDIKELRHDKNWN
B5: Il22 34-179 E43H/S45R/Q49S/N68Q/N97Q/Q116W/Q128K (Mus musculus, UniProt Q9JJY9); sequence looked up; chain LPVNTRCKLHVRNFQSPYIVNRTFMLAKEASLADQNTDVRLIGEKLFRGVSAKDQCYLMKQVLQFTLEDVLLPQSDRFQPYMWEVVPFLTKLSNKLSSCHISGDDQNIQKNVRRLKETVKKLGESGEIKAIGELDLLFMSLRNACV
B6: SFN 1-231 (Homo sapiens, UniProt P31947); chain MERASLIQKAKLAEQAERYEDMAAFMKGAVEKGEELSCEERNLLSVAYKNVVGGQRAAWRVLSSIEQKSNEEGSEEKGPEVREYREKVETELQGVCDTVLGLLDSHLIKEAGDAESRVFYLKMKGDYYRYLAEVATGDDKKRIIDSARSAYQEAMDISKKEMPPTNPIRLGLALNFSVFHYEIANSPEEAISLAKTTFDEAMADLHTLSEDSYKDSTLIMQLLRDNLTLWT
B7: Lair1/IgG1 Fc Fc fusion, extracellular domain 22-144 (Mus musculus); sequence looked up; chain QEGSLPDITIFPNSSLMISQGTFVTVVCSYSDKHDLYNMVRLEKDGSTFMEKSTEPYKTEDEFEIGPVNETITGHYSCIYSKGITWSERSKTLELKVIKENVIQTPAPGPTSDTSWLKTYSIY
B8: tatA I15C (Escherichia coli, UniProt P69428); MTSL spin label Cys15; sequence looked up; chain MGGISIWQLLIIAVCVVLLFGTKKLGSIGSDLGASIKGFKKAMSDDEPKQDKTSQDADFTAKTIADKQADTNQEQAKTEDAKRHDKEQV
B9: enzyme (Bacillus pumilus, UniProt A8FFI9); chain EARSIAWSVDEFFKNREGTFVIQEVKEKSPWVYNKKRAKERFAPQSTFKVANALIGLQTGAVRDEYDIKYWDGVKREIDNWNRDHTLGSGMRDSVVWYYQAMARDIGEERMNHWVKAIHYGNKDISGGIDQFWLSSTLRISPIEQVRFLKQLYEETLPFDLKNMRTVKRMMVQEEEKHATLYGKTGSGSDIGWYVGFIKHEHKTYILATNIKGTGIEAKDITYRILKKYHLMEASV
B10: S100A8 1-93 C42S (Homo sapiens, UniProt P05109); chain MLTELEKALNSIIDVYHKYSLIKGNFHAVYRDDLKKLLETESPQYIRKKGADVWFKELDINTDGAVNFQEFLILVIKMGVAAHKKSHEESHKE
B11: Tiam1 393-1591 (Mus musculus, UniProt Q60610); sequence looked up; chain MSTTNSESLEEAGSAHSDEQSSGTLSSPGQSDILLTAAQGTVRKAGALAVKNFLVHKKNKKVESATRRKWKHYWVSLKGCTLFFYETDGRSGIDHNSVPKHAVWVENSIVQAVPEHPKKDFVFCLSNSLGDAFLFQTTSQTELENWITAIHSACAAAVARHHHKEDTLRLLKSEIKKLEQKIDMDEKMKKMGEMQLSSVTDSKKKKTILDQIFVWEQNLEQFQMDLFRFRCYLASLQGGELPNPKRLLAFASRPTKVAMGRLGIFSVSSFHALVAARTGEIGVRRRTQAMSRSASKRRSRFSSLWGLDTTSKKKQGRPTINQVFGEGTDAVKRSLEGIFDDTVPDGKREKEVVLPSVHQHNPDCDIWVHEYFTPSWFCLPNNQPALTVVRPGDTARDTLELICKTHQLDHSAHYLRLKFLMENRVQFYIPQPEEDIYELLYKEIEICPKVTQNIHIEKSDAAADNYGFLLSSVDEDGIRRLYVNSVKETGLASKKGLKAGDEILEINNRAAGTLNSSMLKDFLSQPSLGLLVRTYPEPEGGVELLENPPHRVDGPVDLGESPLAFLTSNPGHSLSSEQGSSAETAPEEGEGPDLESSDETDHSSKSTEQVAAFCRSLHEMSPSDSSPSPQDATSPQLATTRQLSDADKLRKVICELLETERTYVKDLNCLMERYLKPLQKETFLTQDELDVLFGNLTEMVEFQVEFLKTLEDGVRLVPDLEKLEKVDQFKKVLFSLGGSFLYYADRFKLYSAFCASHTKVPKVLVKAKTDTAFKAFLDAQNPRQQHSSTLESYLIKPIQRVLKYPLLLRELFALTDAESEEHYHLDVAIKTMNKVASHINEMQKIHEEFGAVFDQLIAEQTGEKKEVADLSMGDLLLHTSVIWLNPPASLGKWKKEPELAAFVFKTAVVLVYKDGSKQKKKLVGSHRLSIYEEWDPFRFRHMIPTEALQVRALPSADAEANAVCEIVHVKSESEGRPERVFHLCCSSPESRKDFLKSVHSILRDKHRRQLLKTESLPSAQQYVPFGGKRLCALKGARPAMSRAVSAPSKSLGRRRRRLARNRFTIDSDAISASSPEKEPQQPAGGGDTDRWVEEQFDLAQYEEQDDIKETDILSDDDEFCESLKGASVDRDLQEQLQAASISQRARGRRTLDSHASRMTQLKKQAALSGINGGLESASEEVIWVRREDFAPSRKLNTEI
B12: ETV6 48-121 V112E/R80S (Homo sapiens, UniProt P41212); sequence looked up; chain IRLPAHLRLQPIYWSRDDVAQWLKWAENEFSLSPIDSNTFEMNGKALLLLTKEDFRYRSPHSGDELYELLQHIL
B13: MACROD2 7-243 (Homo sapiens, UniProt A1Z1Q3); sequence looked up; chain KKKVWREEKERLLKMTLEERRKEYLRDYIPLNSILSWKEEMKGKGQNDEENTQETSQVKKSLTEKVSLYRGDITLLEVDAIVNAANASLLGGGGVDGCIHRAAGPCLLAECRNLNGCDTGHAKITCGYDLPAKYVIHTVGPIARGHINGSHKEDLANCYKSSLKLVKENNIRSVAFPCISTGIYGFPNEPAAVIALNTIKEWLAKNHHEVDRIIFCVFLEVDFKIYKKKMNEFFSVD
B14: TIM8/TIM13 hetero-hexamer K30F/S36L (Saccharomyces cerevisiae); chain 1 MSSLSTSDLASLDDTSKKEIATFLEGENSFQKVQMLIHQFTNICFKKCVESVNDSNLSSQEEQCLSNCVNRFLDTNIRIVNGLQNTR; chain 2 GGLSSIFGGGAPSQQKEAATTAKTTPNPIAKELKNQIAQELAVANATELVNKISENCFEKCLTSPYATRNDACIDQCLAKYMRSWNVISKAYISRIQNASASGEI
B15: PUM2 471-704 (Homo sapiens, UniProt Q8TB72); sequence looked up; chain ISSAAAQAAAAAAAGGTASSLTGSTNGLFRPIGTQPPQQQQQQPSTNLQSNSFYGSSSLTNSSQSSSLFSHGPGQPGSTSLGFGSGNSLGAAIGSALSGFGSSVGSSASSSATRRESLSTSSDLYKRSSSSLAPIGQPFYNSLGFSSSPSPIGMPLPSQTPGHSLTPPPSLSSHGSSSSLHLGGLTNGSGRYISAAPGAEAKYRSASSTSSLFSSSSQLFPPSRLRYNRSDIMP

B1 (prf1 aRF1)
binding (tuf 7-437 K99A/R309A (Aeropyrum pernix, UniProt Q9YAV0); pull-down): binds

B2 (nusG 42-233)
binding (rpoC/rpoZ (Thermotoga maritima); NMR titration; pH 7.5, 323 K, NaCl 50 mM): binds

PPPYVAPPSYEG (Ddn 224-235 (Mus musculus, UniProt Q80TS7); sequence looked up)
binding (Sav1 198-271 (Mus musculus, UniProt Q8VEB2); crystal structure; peptide): binds

GAGUUGAGUUGAGUUGAGUUGAGUUGAGUUGAGUUGAGUUGAGUUGAGUUGAGUU (ssRNA; single strand)
Kd (mtrB full length assumed T30V/K56V (Bacillus subtilis, UniProt P19466); filter binding; added: L-tryptophan 1 mM): 98 ± 9 nM

MPIALDHILNKFWILHYAGSGSSG (SPAM peptide F4A; peptide-RNA fusion)
binding (CD274 ectodomain (Homo sapiens); radioligand binding; peptide; 1 h, 4 °C): binds

B3 (UGT1A9)
Vmax/Km (O=c1c(O)c(-c2ccccc2)oc2ccccc12; steady-state kinetics; pH 7.4, 37 °C): 7000 µL/min/mg

B4 (TIF4631 572-853 K590R)
binding (TIF1 E28C/G370C, Alexa488/Alexa546 labels (Saccharomyces cerevisiae, UniProt P10081); conformation of molecule, smFRET): binds

Ac-YQSAIKVEPA[pS]PPYYSEKTQL (PPARG residues 102-122 (Homo sapiens); N-acetyl, pS112; pS = N[C@@H](COP(=O)(O)O)C(=O)O)
binding (PIN1 (Homo sapiens, UniProt Q13526); NMR; peptide): binds

B5
binding (Il22ra1 16-228 N80D/N87D/T89Q (Mus musculus, UniProt Q80XZ4); crystal structure): binds

B6 (SFN 1-231)
binding (MAPT full-length 2N4R, PKA phosphorylated (UniProt P10636-8); cross-linking): binds

MPAFLDHILNKFWILHYAGSGSSG (SPAM peptide I3A; peptide-RNA fusion)
binding (CD274 ectodomain (Homo sapiens); radioligand binding; peptide; 1 h, 4 °C): binds

B7
binding (COL3A1, hydroxyproline (Homo sapiens, UniProt P02461); pull-down; Fc fusion): binds

human cathepsin G
binding (Protein S100-A9 (S100A9, Homo sapiens, UniProt P06702); ELISA; up to 100 nM): no binding

B8 (tatA I15C)
binding (tatA (Escherichia coli, UniProt P69428); EPR spectroscopy; spin dilution, in detergent, added: MTSL label): binds

B9 (enzyme)
kcat/Km (CC(=O)OCC1=C(C(=O)O)N2C(=O)[C@@H](NC(=O)Cc3cccs3)[C@H]2SC1; steady-state kinetics; pH 7): 12000 ± 1000 M⁻¹ s⁻¹

S. cerevisiae FACT complex
Kd (HTB1/HTA1 (Saccharomyces cerevisiae, UniProt P02293+P04911); EMSA; first binding event, added: FACT 200 nM): ~100 nM

B10 (S100A8 1-93 C42S)
binding (S100A9 1-114 C3S/H103A/H105A/K106H (Homo sapiens, UniProt P06702); SEC; without Ca2+): binds

{VPS26(1–321)}-TAQPELYL[SeMet]NT[SeMet] (SLC11A2 549-560 L557M (Homo sapiens, UniProt P49281); SeMet = C[Se]CC[C@H](N)C(=O)O; sequence looked up)
binding (VPS26A fragment (Homo sapiens); crystal structure; peptide): binds

B11 (Tiam1 393-1591)
binding (ANK1, 125I label (Homo sapiens, UniProt P16157); radioligand binding; 5 h, pH 7.4, 4 °C, NaCl 150 mM): binds

B12 (ETV6 48-121 V112E/R80S)
binding (TNK1 UBA domain C610A/C644A (Homo sapiens); crystal structure): binds

B13 (MACROD2 7-243)
binding (PARP1 automodified, auto-ADP-ribosylated (Homo sapiens, UniProt P09874); pull-down; 4 °C): binds

B14
binding (TIM23 C98S/C209S/C213A (Saccharomyces cerevisiae, UniProt P32897); pull-down): binds

PHKB (Oryctolagus cuniculus, UniProt P12798)
binding (PHKA1 (Oryctolagus cuniculus, UniProt P18688); cross-linking; 5 min, pH 6.8, 30 °C): binds

B15 (PUM2 471-704)
binding (CNOT1/CNOT2/CNOT3 NOT module 1833-2361 (Homo sapiens); pull-down): binds

Excerpt of the above:
B15 (PUM2 471-704)
binding (CNOT1/CNOT2/CNOT3 NOT module 1833-2361 (Homo sapiens); pull-down): binds

B1 (prf1 aRF1)
binding (tuf 7-437 K99A/R309A (Aeropyrum pernix, UniProt Q9YAV0); pull-down): binds
